# Results collected from several papers.
# Every numbered part comes from another study and shows a few of its results, in no order. Changes are numbered by the printed parent chain.

# Sample 1
# Target: Interferon regulatory factor 7, full length, phosphomimetic (IRF7, Homo sapiens, UniProt Q92985, residues 1-503, S471D/S472D/S475D/S476D/S477D/S483D/S484D/S487D)
# Method: protein-binding microarray
# Form: double-stranded DNA, one strand shown
# Medium: in vitro
# Concentration: 2200 nM top
# Setting: 60-bp whole probe
# With: salmon DNA 0.4 mg/ml
# Baseline: random background probes
# Direction: higher = stronger binding
# Constant ends, left off below: GCCTAGCAC … GTCTTGATTCGCTTGACGCTGCTG
# Residues (chain): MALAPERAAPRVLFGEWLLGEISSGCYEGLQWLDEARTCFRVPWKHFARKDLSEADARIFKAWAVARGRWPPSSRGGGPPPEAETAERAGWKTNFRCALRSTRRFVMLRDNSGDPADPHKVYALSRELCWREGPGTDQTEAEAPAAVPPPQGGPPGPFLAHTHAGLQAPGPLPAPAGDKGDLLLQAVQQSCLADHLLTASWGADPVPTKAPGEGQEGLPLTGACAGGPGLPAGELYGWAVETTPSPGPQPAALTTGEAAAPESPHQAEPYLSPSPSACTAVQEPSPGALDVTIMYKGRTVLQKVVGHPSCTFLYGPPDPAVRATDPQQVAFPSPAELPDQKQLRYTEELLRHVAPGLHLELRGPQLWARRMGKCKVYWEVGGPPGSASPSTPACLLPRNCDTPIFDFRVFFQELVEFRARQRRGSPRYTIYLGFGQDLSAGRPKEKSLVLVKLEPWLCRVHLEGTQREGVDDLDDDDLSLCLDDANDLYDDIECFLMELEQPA
Oligonucleotide,fitted relative affinity
GACGATTTCAGTCTCCAGACGTGCTAG,0.993 z-score
CTTCTTTTTTTTCTTTAAAAGTGCTAG,2.41 z-score
GACGTACTGCTTCTCCTGACGTGCTAG,1.43 z-score
TCACAAGTCTTGTTTTACACTGTGCTA,1.06 z-score
CACGGTATCGACACTGGGGACGTGCTA,-0.118 z-score
TCAAGAATGTCCTTTCTCACTGTGCTA,0.495 z-score
GACGGTTTCGGGTTGCGGGACGTGCTA,12.1 z-score
CACGGTATCGGTTTCGGGACGTGCTAG,3.96 z-score
GACGGACTGGGGACTGTGGACGTGCTA,-0.847 z-score
GACGGATTGGGGACTGGGGACGTGCTA,-0.0526 z-score
TTAGGTATCGGTACTGGGTTAGTGCTA,0.137 z-score
TTAGATCTCAAACTGGATTAGTGCTAG,-0.38 z-score
GACGGTTTAGGTATCGGGACGTGCTAG,0.791 z-score
GACGGATTCCTTTCCCTGACGTGCTAG,2.02 z-score
TCATCTTGCTTTTTAGAACTGTGCTAG,1.43 z-score
AGGAGAGATTAAGTAACTTAGTGCTAG,-1.62 z-score

# Sample 2
# Target: Sal-like protein 4, full length isoform A (SALL4, Homo sapiens, UniProt Q9UJQ4, residues 1-1053)
# Chain of UniProt Q9UJQ4 (whole entry, looked up): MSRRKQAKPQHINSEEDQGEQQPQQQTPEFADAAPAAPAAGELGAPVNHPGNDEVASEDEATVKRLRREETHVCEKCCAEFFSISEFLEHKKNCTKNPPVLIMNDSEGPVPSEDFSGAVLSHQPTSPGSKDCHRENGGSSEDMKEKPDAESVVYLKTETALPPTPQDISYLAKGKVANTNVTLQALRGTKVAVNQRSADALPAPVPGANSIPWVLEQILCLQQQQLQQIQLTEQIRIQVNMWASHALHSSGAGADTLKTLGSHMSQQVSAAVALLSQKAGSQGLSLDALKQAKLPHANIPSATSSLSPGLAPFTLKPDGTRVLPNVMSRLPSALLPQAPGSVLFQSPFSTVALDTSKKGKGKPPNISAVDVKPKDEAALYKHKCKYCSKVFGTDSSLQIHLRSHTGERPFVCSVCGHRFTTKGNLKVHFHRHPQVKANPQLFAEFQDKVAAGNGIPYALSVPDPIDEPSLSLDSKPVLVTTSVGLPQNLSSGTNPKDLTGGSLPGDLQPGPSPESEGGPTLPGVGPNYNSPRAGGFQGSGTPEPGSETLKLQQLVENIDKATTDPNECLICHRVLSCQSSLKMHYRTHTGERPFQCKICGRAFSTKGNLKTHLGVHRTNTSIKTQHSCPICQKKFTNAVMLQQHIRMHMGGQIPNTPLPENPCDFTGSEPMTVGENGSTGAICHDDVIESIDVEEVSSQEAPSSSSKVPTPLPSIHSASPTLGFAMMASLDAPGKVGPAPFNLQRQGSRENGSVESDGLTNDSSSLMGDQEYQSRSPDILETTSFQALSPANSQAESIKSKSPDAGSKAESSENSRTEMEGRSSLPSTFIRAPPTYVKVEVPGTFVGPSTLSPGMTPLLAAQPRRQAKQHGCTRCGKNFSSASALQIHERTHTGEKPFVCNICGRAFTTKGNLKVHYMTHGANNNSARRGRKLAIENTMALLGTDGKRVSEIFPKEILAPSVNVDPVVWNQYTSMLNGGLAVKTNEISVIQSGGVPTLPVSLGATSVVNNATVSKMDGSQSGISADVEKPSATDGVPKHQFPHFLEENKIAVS
# Method: universal PBM
# Form: double-stranded DNA, one strand shown
# Medium: in vitro
# Concentration: 600 nM
# Setting: 8-mer, flanks averaged, mean of replicates
# Direction: higher = stronger binding
Oligonucleotide,E-score
ACCTCAAT,0.0375
AAACGACA,0.0705
GCGCGTAA,-0.0711
CCGGAGTA,-0.19
GGCAGAAC,-0.109
ATACCAGA,0.0873
AAGTCTTC,-0.0314
CACTCTAC,0.0675
TCCTTAGA,-0.0609
ATATGGCG,0.104
GTAACATA,0.223
CAATGCGA,-0.00564
ACAGCGAG,-0.0579
ACACAGCG,0.014
CCTTTGCA,0.0092
CCAACTCG,-0.148

# Sample 3
# Target: CCNB1, cyclin fold, Cln2 fusion (human)
# Method: yeast growth competition, sequencing
# Medium: yeast
# Setting: weak parent motif
# Baseline: not given
# Direction: higher = stronger binding
# Starting sequence: SCAPER docking peptide (human); SNARRSLNFGGST
Substitution,normalised enrichment score
SNARRSLNFGGQT [S12Q],-0.198
SNWRRSLNFGGST [A3W],0.38
SNARRSLNFGGMT [S12M],-0.108
SNARASLNFGGST [R5A],0.109
SNARRSLIFGGST [N8I],1.04
SCARRSLNFGGST [N2C],0.689
SNAQRSLNFGGST [R4Q],-0.4
SNARRSLNFGNST [G11N],0.0512
SNARRSLEFGGST [N8E],0.211
SNARRSLNTGGST [F9T],0.66
YNARRSLNFGGST [S1Y],1.42
SNARRSLNFGEST [G11E],0.583
SNARRSLNKGGST [F9K],0.0171
SNARRSLNFGGDT [S12D],0.777
SNARRGLNFGGST [S6G],0.576
SNVRRSLNFGGST [A3V],0.741
SNARRSLGFGGST [N8G],-0.216
SNARRSINFGGST [L7I],0.0607
VNARRSLNFGGST [S1V],0.735
DNARRSLNFGGST [S1D],0.801
SNARRSLNFGGGT [S12G],0.783
SNARRSLNFGGSC [T13C],0.466
SIARRSLNFGGST [N2I],0.456
SNDRRSLNFGGST [A3D],-0.106
SNARRSLNFGCST [G11C],0.317

# Mixed results
Molecule,target,assay,system,setting,how to read,measurement,result
"PhoQ, residues 284 288 289 292 302 303 TAVSDG","PhoP, residues 12 14 15 18 19 NHTVL (Escherichia coli, UniProt P23836)","Sort-seq, refers to: YFP reporter",E. coli,"PhoQ-PhoP variant library, with: 10 µM Mg2+","baseline: high Mg2+ state, higher = stronger signaling",fold induction,10.4

# Repeated from above (sample 2):
Oligonucleotide,E-score
ATACCAGA,0.0873
AAGTCTTC,-0.0314
CACTCTAC,0.0675
TCCTTAGA,-0.0609
ATATGGCG,0.104
GTAACATA,0.223
CAATGCGA,-0.00564
ACAGCGAG,-0.0579
